Experimental data from different studies.
Protocols differ between the studies behind these lines. ± gives the spread as reported.
UniProt Q96RG2, sequence (whole entry, looked up): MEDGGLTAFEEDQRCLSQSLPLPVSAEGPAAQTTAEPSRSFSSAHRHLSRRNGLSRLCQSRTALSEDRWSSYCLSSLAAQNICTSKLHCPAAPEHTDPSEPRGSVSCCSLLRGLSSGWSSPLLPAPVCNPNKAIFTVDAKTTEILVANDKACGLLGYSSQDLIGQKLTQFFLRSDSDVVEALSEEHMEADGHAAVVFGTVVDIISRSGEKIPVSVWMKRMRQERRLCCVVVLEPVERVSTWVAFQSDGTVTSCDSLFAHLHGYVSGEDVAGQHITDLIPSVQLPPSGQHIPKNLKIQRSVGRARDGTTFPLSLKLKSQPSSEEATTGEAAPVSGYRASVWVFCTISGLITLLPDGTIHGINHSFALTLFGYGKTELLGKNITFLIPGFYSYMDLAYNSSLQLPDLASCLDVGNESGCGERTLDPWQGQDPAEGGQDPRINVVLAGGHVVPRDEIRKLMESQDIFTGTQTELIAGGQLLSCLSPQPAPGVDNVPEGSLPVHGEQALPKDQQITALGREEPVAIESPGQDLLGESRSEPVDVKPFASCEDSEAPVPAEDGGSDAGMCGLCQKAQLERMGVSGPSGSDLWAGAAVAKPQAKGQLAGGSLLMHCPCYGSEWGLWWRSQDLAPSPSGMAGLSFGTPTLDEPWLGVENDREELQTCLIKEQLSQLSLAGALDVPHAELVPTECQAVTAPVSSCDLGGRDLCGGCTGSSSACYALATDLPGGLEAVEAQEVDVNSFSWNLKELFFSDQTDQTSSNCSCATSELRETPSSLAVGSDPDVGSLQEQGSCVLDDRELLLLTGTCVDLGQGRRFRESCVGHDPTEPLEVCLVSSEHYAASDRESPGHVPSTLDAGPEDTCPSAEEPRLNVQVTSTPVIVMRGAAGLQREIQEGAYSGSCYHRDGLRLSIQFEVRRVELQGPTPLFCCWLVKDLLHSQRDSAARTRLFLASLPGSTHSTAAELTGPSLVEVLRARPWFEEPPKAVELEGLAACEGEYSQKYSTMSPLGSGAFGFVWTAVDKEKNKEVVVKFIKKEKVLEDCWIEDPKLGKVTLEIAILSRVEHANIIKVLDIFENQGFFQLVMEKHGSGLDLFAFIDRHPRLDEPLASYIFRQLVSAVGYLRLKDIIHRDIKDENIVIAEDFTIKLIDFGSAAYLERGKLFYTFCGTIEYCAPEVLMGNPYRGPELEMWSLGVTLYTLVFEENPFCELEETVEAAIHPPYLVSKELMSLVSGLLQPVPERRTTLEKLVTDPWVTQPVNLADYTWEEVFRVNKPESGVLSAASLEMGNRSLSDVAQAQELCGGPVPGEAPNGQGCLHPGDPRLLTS
UniProt Q86Z02, sequence (whole entry, looked up): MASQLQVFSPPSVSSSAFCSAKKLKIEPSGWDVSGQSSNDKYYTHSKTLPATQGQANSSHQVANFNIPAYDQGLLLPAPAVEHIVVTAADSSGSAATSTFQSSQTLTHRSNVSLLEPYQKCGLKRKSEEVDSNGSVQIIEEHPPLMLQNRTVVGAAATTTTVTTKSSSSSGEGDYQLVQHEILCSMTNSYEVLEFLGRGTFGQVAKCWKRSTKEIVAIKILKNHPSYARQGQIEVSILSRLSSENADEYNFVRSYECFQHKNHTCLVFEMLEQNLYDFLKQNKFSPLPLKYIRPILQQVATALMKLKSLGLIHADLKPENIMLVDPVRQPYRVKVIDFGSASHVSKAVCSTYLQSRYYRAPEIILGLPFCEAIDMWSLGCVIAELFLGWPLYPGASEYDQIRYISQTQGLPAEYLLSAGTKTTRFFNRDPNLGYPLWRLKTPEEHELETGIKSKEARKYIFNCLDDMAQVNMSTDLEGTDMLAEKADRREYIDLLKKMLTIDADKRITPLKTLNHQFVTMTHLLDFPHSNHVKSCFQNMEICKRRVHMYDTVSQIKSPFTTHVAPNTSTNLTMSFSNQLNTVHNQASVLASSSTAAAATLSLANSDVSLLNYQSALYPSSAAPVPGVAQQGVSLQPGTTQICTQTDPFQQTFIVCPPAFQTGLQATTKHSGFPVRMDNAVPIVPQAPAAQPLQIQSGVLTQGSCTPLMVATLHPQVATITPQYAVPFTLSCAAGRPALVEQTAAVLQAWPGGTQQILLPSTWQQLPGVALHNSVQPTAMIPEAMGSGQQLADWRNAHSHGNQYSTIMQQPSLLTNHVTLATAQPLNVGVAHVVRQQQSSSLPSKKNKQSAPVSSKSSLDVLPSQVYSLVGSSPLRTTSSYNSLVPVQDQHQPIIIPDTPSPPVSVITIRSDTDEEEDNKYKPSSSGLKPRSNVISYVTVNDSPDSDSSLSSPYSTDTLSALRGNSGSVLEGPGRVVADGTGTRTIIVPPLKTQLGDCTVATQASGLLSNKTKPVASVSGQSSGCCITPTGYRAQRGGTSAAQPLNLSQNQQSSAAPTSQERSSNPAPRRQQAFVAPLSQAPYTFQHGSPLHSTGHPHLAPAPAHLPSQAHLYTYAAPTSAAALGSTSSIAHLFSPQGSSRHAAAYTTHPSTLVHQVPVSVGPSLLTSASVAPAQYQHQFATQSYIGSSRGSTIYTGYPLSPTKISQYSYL
UniProt P07332, sequence (whole entry, looked up): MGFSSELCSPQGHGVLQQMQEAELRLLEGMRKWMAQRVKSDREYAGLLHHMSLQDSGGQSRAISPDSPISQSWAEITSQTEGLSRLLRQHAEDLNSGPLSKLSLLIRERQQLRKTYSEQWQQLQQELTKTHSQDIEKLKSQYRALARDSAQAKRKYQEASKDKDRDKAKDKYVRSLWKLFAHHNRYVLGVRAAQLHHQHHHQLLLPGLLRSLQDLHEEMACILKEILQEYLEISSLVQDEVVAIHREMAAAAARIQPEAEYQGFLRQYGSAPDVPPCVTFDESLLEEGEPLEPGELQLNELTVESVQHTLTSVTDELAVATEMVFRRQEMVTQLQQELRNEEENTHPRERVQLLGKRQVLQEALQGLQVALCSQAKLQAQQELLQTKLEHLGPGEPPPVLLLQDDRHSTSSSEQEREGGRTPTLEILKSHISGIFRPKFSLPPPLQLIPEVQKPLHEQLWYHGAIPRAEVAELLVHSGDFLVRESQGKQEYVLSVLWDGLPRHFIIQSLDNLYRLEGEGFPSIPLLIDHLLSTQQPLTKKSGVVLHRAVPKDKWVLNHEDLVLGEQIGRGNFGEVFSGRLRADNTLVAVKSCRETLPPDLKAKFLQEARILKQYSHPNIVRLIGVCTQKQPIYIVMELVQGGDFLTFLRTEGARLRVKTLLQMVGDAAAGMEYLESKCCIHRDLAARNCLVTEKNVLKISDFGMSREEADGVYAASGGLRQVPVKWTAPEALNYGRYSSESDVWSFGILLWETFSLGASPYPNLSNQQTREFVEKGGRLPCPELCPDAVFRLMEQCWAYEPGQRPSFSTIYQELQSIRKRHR
UniProt Q96PY6, sequence (whole entry, looked up): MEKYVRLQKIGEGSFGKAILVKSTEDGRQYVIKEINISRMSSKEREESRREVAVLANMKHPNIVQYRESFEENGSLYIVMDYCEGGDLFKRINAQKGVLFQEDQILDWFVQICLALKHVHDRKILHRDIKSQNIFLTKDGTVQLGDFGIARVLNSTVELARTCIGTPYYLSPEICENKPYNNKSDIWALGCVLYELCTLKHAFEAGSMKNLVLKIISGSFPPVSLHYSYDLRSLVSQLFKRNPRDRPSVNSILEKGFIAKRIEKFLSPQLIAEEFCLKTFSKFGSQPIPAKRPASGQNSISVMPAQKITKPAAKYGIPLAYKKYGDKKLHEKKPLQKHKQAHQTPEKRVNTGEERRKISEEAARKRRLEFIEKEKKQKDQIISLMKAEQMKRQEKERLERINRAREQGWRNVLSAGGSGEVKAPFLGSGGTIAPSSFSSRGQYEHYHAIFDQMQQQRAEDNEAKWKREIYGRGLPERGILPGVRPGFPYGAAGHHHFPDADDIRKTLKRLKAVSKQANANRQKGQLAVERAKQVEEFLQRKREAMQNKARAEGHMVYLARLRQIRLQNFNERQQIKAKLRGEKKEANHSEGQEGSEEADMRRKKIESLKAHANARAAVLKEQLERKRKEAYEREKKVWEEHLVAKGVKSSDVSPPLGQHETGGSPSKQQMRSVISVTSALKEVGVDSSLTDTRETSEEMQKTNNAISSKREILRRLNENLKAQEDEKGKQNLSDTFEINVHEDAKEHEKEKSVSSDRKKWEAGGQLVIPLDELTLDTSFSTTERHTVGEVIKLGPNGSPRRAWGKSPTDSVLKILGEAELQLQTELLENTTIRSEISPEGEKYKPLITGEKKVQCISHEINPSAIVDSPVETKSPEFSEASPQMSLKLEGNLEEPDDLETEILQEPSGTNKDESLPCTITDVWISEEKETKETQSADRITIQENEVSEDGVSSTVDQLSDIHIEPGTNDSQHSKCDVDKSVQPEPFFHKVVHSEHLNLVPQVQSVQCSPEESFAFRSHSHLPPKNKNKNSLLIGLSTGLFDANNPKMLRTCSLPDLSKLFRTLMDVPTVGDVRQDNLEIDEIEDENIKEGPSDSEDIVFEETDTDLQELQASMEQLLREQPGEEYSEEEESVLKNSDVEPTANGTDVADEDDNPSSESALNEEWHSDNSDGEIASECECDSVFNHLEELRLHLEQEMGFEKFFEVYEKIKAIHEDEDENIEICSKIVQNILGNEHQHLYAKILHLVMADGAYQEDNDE
UniProt Q13882, sequence (whole entry, looked up): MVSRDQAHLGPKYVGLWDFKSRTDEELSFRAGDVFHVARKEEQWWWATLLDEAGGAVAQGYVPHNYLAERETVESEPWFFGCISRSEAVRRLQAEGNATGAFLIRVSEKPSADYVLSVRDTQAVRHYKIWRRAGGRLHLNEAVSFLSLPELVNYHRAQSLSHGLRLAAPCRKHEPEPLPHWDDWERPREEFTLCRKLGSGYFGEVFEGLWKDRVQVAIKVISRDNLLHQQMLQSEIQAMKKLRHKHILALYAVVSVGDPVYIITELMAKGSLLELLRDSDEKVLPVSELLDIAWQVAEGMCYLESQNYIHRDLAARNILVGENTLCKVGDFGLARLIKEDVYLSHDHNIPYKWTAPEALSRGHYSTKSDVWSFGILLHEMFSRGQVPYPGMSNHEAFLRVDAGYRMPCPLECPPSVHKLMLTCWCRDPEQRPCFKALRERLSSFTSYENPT

With `O=C1CCc2c(ccc3ccccc23)O1` the viability was 113% (HBL-1; 0.1 µM, 120 h).
`Cc1cc(Nc2cc(N3CCN(C)CC3)nc(Sc3ccc(NC(=O)C4CC4)cc3)n2)[nH]n1` gave a remaining activity of 53% (PAS domain-containing serine/threonine-protein kinase (PASK, Homo sapiens, UniProt Q96RG2); kinase activity, KinaseProfiler; 0.03 µM, species human; reference: control).
The remaining activity of `C=CC(=O)N1CCC[C@@H](n2nc(-c3ccc(Oc4ccccc4)cc3)c3c(N)ncnc32)C1` is reported as 13.4% (Tyrosine-protein kinase Fes/Fps (FES, Homo sapiens, UniProt P07332); 10 µM).
`COc1cc(-c2cncc3c2CN(C)Cc2cc(N4CCNCC4)ccc2-3)cc(OC)c1OC` gave a remaining activity of 102% (Ribosomal protein S6 kinase beta-1 (RPS6KB1, Homo sapiens, UniProt P23443); kinase activity; 1 µM, human enzyme, together with: ATP 10 µM; reference: DMSO control).
The remaining activity of `COc1ccc(F)cc1C(=O)NCc1ccc(-c2nn([C@@H](C)C(F)(F)F)c(N)c2C(N)=O)cc1` is reported as 53.9 ± 1.2% (Proto-oncogene tyrosine-protein kinase receptor Ret (RET, Homo sapiens, UniProt P07949); kinase activity, inhibitor, HotSpot radiometric; 1000 nM, together with: ATP at Km).
`O=C(NC1CCC1)c1ccc2nc(-c3cccc(NS(=O)(=O)NCCN4CCCCC4)c3)cn2c1` has a remaining activity of 88% (Dual serine/threonine and tyrosine protein kinase (DSTYK, Homo sapiens, UniProt Q6XUX3); enzyme activity; 10 µM).
The viability of `Nc1nc(OCc2cc(Br)cs2)c2[nH]cnc2n1` is reported as 113% (HBL-1; 0.5 µM, 120 h).
The EC50 of `CCS(=O)(=O)N1CCCCN2[C@@H](CO)[C@@H](c3ccc(C#Cc4ccccc4OC)cc3)[C@@H]2C1` is reported as 1800 nM (Insulin-degrading enzyme (IDE, Homo sapiens, UniProt P14735); enzyme activity, inhibitor, fluorogenic kinetic; together with: Mca-RPPGFSAFK(Dnp)-OH substrate).
`O=C1NC(=O)/C(=C/c2ccc(-c3ccc(F)cc3O)o2)S1` has a remaining activity of 29% (Homeodomain-interacting protein kinase 1 (HIPK1, Homo sapiens, UniProt Q86Z02); enzyme activity; 10 µM).
`COc1cc(N2CCN(C)CC2)ccc1Nc1nc(N)n(C(=S)NCc2c(Cl)cccc2Cl)n1` gave a remaining activity of 27% (Serine/threonine-protein kinase Nek1 (NEK1, Homo sapiens, UniProt Q96PY6); enzyme activity; 10 µM; reference: control).
The remaining activity of `COc1cc(F)ccc1-c1ncnc(Nc2cccc(C[S@](C)(=N)=O)c2)n1` is reported as 83% (Protein-tyrosine kinase 6 (PTK6, Homo sapiens, UniProt Q13882); kinase activity; 10 µM, together with: 10 µM ATP).
For `O=C(O)c1ccc(Nc2ncc3c(n2)-c2ccc(Cl)cc2C(c2c(F)cccc2F)=NC3)cc1`, the remaining activity was 101% (human Pim-2(h); kinase activity; 1 µM).

A few entries again:
`O=C(NC1CCC1)c1ccc2nc(-c3cccc(NS(=O)(=O)NCCN4CCCCC4)c3)cn2c1` has a remaining activity of 88% (Dual serine/threonine and tyrosine protein kinase (DSTYK, Homo sapiens, UniProt Q6XUX3); enzyme activity; 10 µM).
